Measurements collected from several papers.
A part holds a random share of what one study measured. Changes are numbered by the printed parent chain.
UniProt P35367, sequence (whole entry, looked up): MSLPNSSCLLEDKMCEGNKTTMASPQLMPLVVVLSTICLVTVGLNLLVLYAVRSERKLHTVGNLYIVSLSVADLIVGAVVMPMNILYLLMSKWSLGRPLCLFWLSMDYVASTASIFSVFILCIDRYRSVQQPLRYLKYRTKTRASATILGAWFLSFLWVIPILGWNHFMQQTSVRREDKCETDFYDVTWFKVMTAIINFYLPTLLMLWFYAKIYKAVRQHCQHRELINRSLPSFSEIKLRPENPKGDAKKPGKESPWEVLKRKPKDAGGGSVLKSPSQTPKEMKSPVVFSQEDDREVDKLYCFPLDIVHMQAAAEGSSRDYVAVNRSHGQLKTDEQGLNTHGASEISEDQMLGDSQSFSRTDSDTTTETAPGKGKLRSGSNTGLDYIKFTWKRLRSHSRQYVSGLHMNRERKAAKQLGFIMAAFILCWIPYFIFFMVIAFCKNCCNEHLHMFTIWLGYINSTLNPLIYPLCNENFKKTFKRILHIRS

Set 1 — target: CCNA1, cyclin fold, Cln2 fusion (human); technique: yeast growth competition, sequencing; medium: yeast; notes: strong parent motif; reference: not given; reading: higher = stronger binding
Parent: viral docking peptide; TSVRRALFTGGSD; partner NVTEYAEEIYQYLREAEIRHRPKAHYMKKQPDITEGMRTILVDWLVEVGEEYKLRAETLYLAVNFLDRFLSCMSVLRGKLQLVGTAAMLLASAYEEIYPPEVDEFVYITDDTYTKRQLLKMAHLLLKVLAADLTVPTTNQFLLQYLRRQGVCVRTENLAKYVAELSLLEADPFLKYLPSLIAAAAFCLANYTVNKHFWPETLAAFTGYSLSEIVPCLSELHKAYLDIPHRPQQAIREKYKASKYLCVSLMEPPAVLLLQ
Variant | normalised enrichment score
TSVRRALFTGESD [G11E] | 1.15
TSVRRALFTIGSD [G10I] | 0.872
TSVRRALFTEGSD [G10E] | 2.14
TSVRRALFTGFSD [G11F] | 0.856
TSVRRALFTGGID [S12I] | 1.01
TSVRRALFTGHSD [G11H] | 1.18

Set 2 — effect on: peptide-MHC binding; molecule type: peptide; concentration: concentration not given
Target: HLA class I histocompatibility antigen, B alpha chain, allele B*15:09 (Homo sapiens, UniProt P01889)
Sequence | binding
FRDRGQHVL | active
YHENWSATL | active
FLGRIWPS | inactive

Further values, each from its own experiment
Structure (SMILES) | target | effect on | technique | cell line | concentration | inhibition
CNC(=O)c1cc(C(=O)NC2CC2)cn(Cc2ccccc2)c1=O | HRH1 (Homo sapiens, UniProt P35367) | binding | radioligand binding |  | 10 µM | -13.1%
O=C1CCC(N2Cc3c(ccc4c3OCC43CCN(Cc4ccccc4)CC3)C2=O)C(=O)N1 (stereo not drawn) | KCNH2 (Homo sapiens, UniProt Q12809) | hERG current | patch clamp | HEK293 expressing hERG | 0.1 µM | 76.4%
O=C(O)[C@H]1[C@H](Cn2nnc3ccccc3c2=O)CC[C@@H]1C(=O)c1ccc(OCCC2CCOCC2)cc1 | DRD5 (Homo sapiens, UniProt P21918) | ligand displacement |  |  | 10 µM | 7.53%

For quick reference, copied from above (set 2):
Sequence | binding
YHENWSATL | active
FLGRIWPS | inactive
